Experimental data gathered from unrelated publications.
Compare with care: the assays were run in different laboratories. ± marks the error that the study gave.
Organism: Plasmodium falciparum

With `CC(F)(F)CCCNC[C@H](O)c1cc(Cl)cc2c1-c1ccc(Cl)cc1C2` the IC50 was 8.5 ± 1.6 nM (3D7; 48 h).
For `COCCN(C)C(C)C(=O)NC(Cc1ccc(-c2ccccc2)cc1)B(O)O` (centres unmarked), the IC50 was 454 ± 109 nM (parasite growth; Dd2-B2 wild type; 72 h).
`Cc1cc(N2CC[C@@](C#N)(C3CC3)C2=O)cc(NC(=O)Cc2ccccc2)n1` has an IC50 of 52 nM (parasite growth; conditional knockdown control line; 120 h, with: 12.5 nM anhydrotetracycline).
`O=C(CCCCCONC(=O)c1nc(-c2ccc([N+](=O)[O-])cc2)cs1)NO` gave an IC50 of 240 nM (asexual blood-stage growth, [3H]hypoxanthine uptake; 3D7; 72 h).
`COc1cccc2c(-c3ccc4c(c3O)[C@@H](C)N[C@H](C)C4)c(CO)cc(OC)c12` gave an IC50 of 11.5 ± 36000 nM (asexual parasite proliferation, SYBR Green I fluorescence; 7G8).
`Cc1cc(N2CCC(CO)(C3CC3)C2=O)cc(C(=O)NCc2cc(F)cc(-c3cnn(C)c3)c2)n1` (centres unmarked) has an IC50 of 242 nM (parasite growth; conditional knockdown control line; 72 h, with: 50 nM anhydrotetracycline).
`O=C(CCCCCONC(=O)c1nc(-c2ccc(O)cc2)cs1)NO` gave an IC50 of greater than 2000 nM (gametocyte viability, MitoTracker flow cytometry; stage IV-V gametocytes; 72 h).
`COc1cccc2c(-c3ccc(O)c4c3CC(C)(C)N=C4)ccc(OC(C)C)c12` gave an IC50 of 127 ± 18 nM (asexual parasite proliferation, SYBR Green I fluorescence; 7G8).
`O[C@H](CNCCNC(c1ccccc1)c1ccccc1)c1cc(Cl)cc2c1-c1ccc(Cl)cc1C2` gave an IC50 of 8 ± 0.3 nM (3D7; 48 h).
`COCCN(C)CC(=O)NC(Cc1ccc(-c2ccccc2)cc1)B(O)O` (centres unmarked) has an IC50 of 141 ± 102 nM ([3H]-hypoxanthine incorporation; K1, chloroquine-resistant).
For `COc1ccc2c(c1)C1CC(C)(N2)c2c(C)nc3ccc(OC)cc3c21` (centres unmarked), the IC50 was 273 nM (parasite growth, inhibitor, SYBR Green I; 3D7).
`CC1C=CC=CC(C)C2C=CC3CC(C)(O)C(O)C(C)C3C2C(=O)C(Cl)(Cl)C(=O)C(C)C(=O)O1` (centres unmarked) gave an IC50 of greater than 2170 nM (parasite growth, ELISA; 3D7; blood stage).
With `C[N+]1=C2C=C(NCCc3c[nH]c4ccccc34)C(=O)c3[nH]cc(c32)CC1` the IC50 was 31.3 nM (parasite growth, SYBR Green; W2; blood stage).
With `COc1cc(C)c(-c2ccc(O)c3c2C[C@@H](C)N[C@@H]3C)c2cccc(O)c12` (single isomer, unassigned) the IC50 was 61 ± 5.2 nM (asexual parasite growth, SYBR Green I; clinical isolate SB_04, Malawi).
With `COC1=CC2=NCCc3c[nH]c(c32)C1=O` the IC50 was 3470 nM (parasite growth, SYBR Green; W2; blood stage).
For `O=c1oc2cc(O)ccc2cc1-n1cc(COc2ccccc2)nn1`, the IC50 was 5250 nM (parasite growth; 3D7; 72 h, blood stage).
`COc1cc(O)c(-c2cc(-c3cc(-c4c(O)cc5c(c4OC)[C@H](C)N[C@H](C)C5)c4cc(C)cc(OC)c4c3O)c(O)c3c(OC)cc(C)cc23)c2c1[C@H](C)N[C@H](C)C2` gave an IC50 of 69.1 ± 2 nM (asexual parasite growth, SYBR Green I; clinical isolate SB_04, Malawi).
The IC50 of `CCN(CC)CCCC(C)Nc1ccnc2cc(Cl)ccc12` (centres unmarked) is reported as 20.1 nM (parasite growth, SYBR Green; 3D7; 72 h, blood stage).
The IC50 of `O=C(CCCCCONC(=O)c1nc(-c2ccc(Cl)cc2)cs1)NO` is reported as 170 nM (asexual blood-stage growth, [3H]hypoxanthine uptake; 3D7; 72 h).
With `N[C@H]1C[C@@H](C(=O)O)CC1=C(Cl)Cl` the IC50 was greater than 10 µg/mL (parasite growth, SYBR Green; D6; blood stage).
The IC50 of `Oc1ccc(-c2ccc(O)c3ccccc23)c2c1C=NCC2` is reported as 970 ± 210 nM (asexual parasite proliferation, SYBR Green I fluorescence; 7G8).
For `O=C1C(NCCc2cc(Br)c(O)c(Br)c2)=CC2=NCCc3c[nH]c1c32`, the IC50 was 1440 nM (parasite growth, SYBR Green; DD2; blood stage).
`CCC1(CC)CC(=O)N(C2CCOc3ccc(C(=O)NC4CC(C)(C)Oc5ccccc54)cc32)C(=N)N1` (centres unmarked) gave an IC50 of roughly 0.3 nM (merozoite egress; PEXEL-Nluc line).
For `COc1c(Br)cc(CCNC2=CC3=NCCc4c[nH]c(c43)C2=O)cc1Br`, the IC50 was 997 nM (parasite growth, SYBR Green; W2; blood stage).
`COc1cncc(-c2cc(F)cc(CNC(=O)c3cc(N4CC[C@@](C#N)(C5CC5)C4=O)cc(C)n3)c2)c1` has an IC50 of 250 nM (parasite growth; conditional knockdown control line; 120 h, with: 50 nM anhydrotetracycline).
The IC50 of `O=C1C(NCCc2ccc(O)cc2)=CC2=NCCc3c(Br)[nH]c1c32` is reported as 4440 nM (parasite growth, SYBR Green; DD2; blood stage).
`CC1=N[C@H](C)Cc2c(-c3ccc4ccccc4c3)ccc(O)c21` has an IC50 of 789 ± 9.2 nM (asexual parasite proliferation, SYBR Green I fluorescence; clinical isolate SB_05, Mozambique).
`O=C1C(NCCc2ccc(O)c(Br)c2)=CC2=NCCc3c[nH]c1c32` gave an IC50 of 498 nM (parasite growth, SYBR Green; DD2; blood stage).
With `COc1cc(C)c(-c2ccc3c(c2O)[C@@H](C)N[C@H](C)C3)c2ccc(-c3c(C)c(-c4ccc5c(c4O)[C@@H](C)N[C@H](C)C5)c4cccc(OC)c4c3O)c(O)c12` the IC50 was 125 ± 19 nM (asexual parasite proliferation, SYBR Green I fluorescence; K1).
For `CCNCC#CCNc1ccnc2cc(Cl)ccc12`, the IC50 was 24 nM (parasite growth, LDH; 3D7).
The IC50 of `Cc1ccc(S(=O)(=O)n2cc3c4c2C(=O)C(N)=CC4=NCC3)cc1` is reported as 1870 nM (parasite growth, SYBR Green; DD2; blood stage).
For `Cc1ccc2c(c1)C1CC(C)(N2)c2c(C)nc3ccc(C)cc3c21` (centres unmarked), the IC50 was 258 nM (parasite growth, inhibitor, SYBR Green I; 3D7).
`Cc1ccc(S(=O)(=O)n2cc3c4c2C(=O)C(NCCc2ccc(O)cc2)=CC4=NCC3)cc1` has an IC50 of 814 nM (parasite growth, SYBR Green; DD2; blood stage).
The IC50 of `COc1cc2c(c(OC)c1)C(C)=[N+](c1ccc(OC)c3c(OC)cc(C)cc13)[C@@H](C)C2` is reported as 626 ± 41 nM (asexual parasite proliferation, SYBR Green I fluorescence; K1).
`CCCCCc1ccc(Cc2cc(/C=C/C(=O)OC)cc3cccnc23)cc1` has an IC50 of 6590 nM (parasite growth, inhibitor, SYBR Green I; 3D7).

For quick reference, copied from above:
With `COc1cc(C)c(-c2ccc(O)c3c2C[C@@H](C)N[C@@H]3C)c2cccc(O)c12` (single isomer, unassigned) the IC50 was 61 ± 5.2 nM (asexual parasite growth, SYBR Green I; clinical isolate SB_04, Malawi).
With `COC1=CC2=NCCc3c[nH]c(c32)C1=O` the IC50 was 3470 nM (parasite growth, SYBR Green; W2; blood stage).
